Assay results gathered from unrelated publications.
Compare with care: the assays were run in different laboratories. Values joined by “and” are separate records of one study, mostly repeats; a detail may differ. ± marks the error that the study gave. In brackets after ≈: the same amount, converted by molar mass.

CCCCC1(CCCC)CN(c2ccccc2)c2cc(SC)c(OCC(=O)N[C@@H](C(=O)NCC(=O)O)c3ccccc3)cc2S(=O)(=O)C1
serum LDL-C (refers to: LDL cholesterol; human, serum; 2.5 mg once daily, day 8): 100 mg/dL

N.N.[Cl][Pt][Cl]
IC50 (CAL-27; cell viability, MTT; 48 h): 17.2 µM

O=C(NNc1ccc(Cl)c(Cl)c1)c1nnc(C23CC4CC(CC(C4)C2)C3)o1
inhibition (Fusarium graminearum; fungal growth, inhibitor; 50 µg/mL): 66.3 ± 0.8%

C[C@H](C(=O)N[C@H]1COc2ccccc2[C@@H]1S(C)(=O)=O)c1ccc(F)cc1
inhibition (sigma receptor, guinea pig; binding; 10 µM, Eurofins selectivity panel): -3%

C/C=C(/C)C(=O)O[C@H]1C(C)=C2[C@H]([C@@H]1OC(=O)CCCCCCC)[C@@](C)(OC(C)=O)C[C@H](OC(=O)CCC)[C@@]1(O)[C@H]2OC(=O)[C@@]1(C)O
normalized enrichment score (HEK-293T; RNA-seq GSEA, refers to: Hallmark bile acid metabolism; 500 nM, 6 h; direction not given): -0.992

CN1CCN(C2(CNC3CCN(c4cccc(-c5cc6cc(F)ccc6[nH]5)c4)CC3)CCC2)CC1
GI50 (M14): 1.47 µM

C[C@H]1O[C@@H](O[C@H]2CC[C@@]3(C)[C@@H](CC[C@]4(C)[C@@H]3C=C[C@]35OC[C@@]6(CCC(C)(C)C[C@H]63)[C@@H](O)C[C@]54C)[C@]2(C)CO)[C@H](O)[C@@H](O[C@@H]2O[C@H](CO)[C@@H](O)[C@H](O)[C@H]2O)[C@H]1O
protein level (Western blot, refers to: PPAR-α; mouse, hepatic SIRT1 knockdown (AAV8-TBG), liver; dose not given, high dose, unit not given, with: ethanol; baseline: β-actin): 0.219 and 0.212 and 0.328

COc1ccc(-n2nc(C(C)=O)s/c2=N\N=C(/C)c2ccc(NC(C)=O)cc2)cc1
toxicity (HepG2; 0.156 µM): 62.4%

CN1CCN(S(=O)(=O)c2cc([N+](=O)[O-])ccc2N(CCOS(C)(=O)=O)CCOS(C)(=O)=O)CC1
event-free survival (NSG mice, sample CA PDX; intraperitoneal, 25 mg/kg weekly x3): 63.3 days

CN1C(=O)C(C2C3=C(CC(C)(C)CC3=O)Oc3c(O)cccc32)C(=O)N(C)C1=O (stereo not drawn)
lipid content (3T3-L1 preadipocytes; adipogenesis, Oil Red O staining; IC20, 14 days, single replicate): 0.547 OD492

COc1cc(CCC[P+](c2ccccc2)(c2ccccc2)c2ccccc2)c(OC)c2c1OCO2.[I-]
TGI (MDA-MB-468; SRB): -6.02 log M

c1ccc(C(NCCNC(c2ccccc2)c2ccccc2)c2ccccc2)cc1
inhibition (AMPA receptor, rat; binding; 10 µM, Eurofins selectivity panel): -13%

C=C1CC[C@@]2(O)[C@H]3Cc4ccc(O)c5c4[C@@]2(CCN3CC2CC2)[C@H]1O5
trans-stimulation ratio (human H+/organic cation antiporter; hCMEC/D3; 250 µM, 2 min, with: 1 µM DPH preloading 30 min; baseline: control): 0.58

Nc1ncnc2c1ncn2[C@@H]1O[C@@H]2COP(=O)(O)O[C@H]3[C@@H](O)[C@H](n4cnc5c(=O)[nH]cnc54)O[C@@H]3COP(=O)(O)O[C@H]2[C@H]1O
fold enrichment (HFF-1; RNA sequencing, refers to: Reactome Signaling by Interleukins; upregulated pathways; baseline: mock): 3.05

O=C(Nc1cccnn1)N1CCN([C@@H]2CCOc3cc(C(F)(F)F)ccc32)CC1
inhibition (PCP; Cerep BioPrint; 20 µM): 6%

CC(C)N1CCC(NC2CCN(c3cccc(-c4cc5cc(F)ccc5[nH]4)c3)CC2)CC1
GI50 (HOP-62): 1.66 µM

COc1c(CCC[P+](c2ccccc2)(c2ccccc2)c2ccccc2)cc2c(c1OC)OCO2.[I-]
LC50 (HOP-62; SRB): -4.15 log M

O=C(NNc1cccc(Cl)c1)c1nnc(C23CC4CC(CC(C4)C2)C3)o1
inhibition (Fusarium graminearum; fungal growth, inhibitor; 50 µg/mL): 100%

CC[C@H](C)[C@H](NC(=O)[C@H](C)NC(=O)[C@H](CCCCN)NC(=O)[C@H](CC(C)C)NC(=O)[C@H](C)NC(=O)[C@@H](NC(=O)[C@H](Cc1c[nH]cn1)NC(=O)[C@H](CC(C)C)NC(=O)[C@@H](NC(=O)[C@@H](NC(=O)[C@H](CCCCN)NC(=O)[C@H](C)NC(=O)[C@H](C)NC(=O)[C@H](CO)NC(=O)[C@H](CCCCN)NC(=O)[C@H](Cc1ccccc1)NC(=O)[C@@H](NC(=O)[C@H](CCCCN)NC(=O)[C@H](CC(C)C)NC(=O)[C@H](Cc1ccccc1)NC(=O)[C@H](CO)NC(=O)[C@H](CCCCN)NC(=O)[C@H](Cc1c[nH]c2ccccc12)NC(=O)[C@H](CCCCN)NC(C)=O)[C@@H](C)O)[C@@H](C)O)C(C)C)[C@@H](C)O)C(=O)N[C@@H](CO)C(=O)N[C@@H](CO)C(N)=O
MBC50 (Acinetobacter baumannii; IPM-R; 87 strains): 4 µg/mL (≈ 1.36 µM)

O=C(NNc1ccc(Cl)c(Cl)c1)c1nnc(CC23CC4CC(CC(C4)C2)C3)o1
inhibition (Fusarium graminearum; fungal growth, inhibitor; 50 µg/mL): 66.3 ± 0.8%

CC[C@H](C)[C@@H]1NC(=O)[C@@H]2CCCN2C(=O)[C@H](CC(C)C)NC(=O)[C@H](CC(C)C)NC(=O)CNC(=O)[C@@H](NC(=O)[C@@H](NC(=O)[C@H](CC(=O)O)NC(=O)CNC(=O)[C@@H](NC(=O)[C@H](C)NC(=O)CNC(=O)[C@H](CCCCN)NC(=O)[C@H](CC(C)C)NC(=O)[C@H](CC(C)C)NC(=O)[C@H](CCCCN)NC(=O)CNC(=O)[C@@H](NC(=O)[C@@H](N)CC(C)C)C(C)C)C(C)C)C(C)C)CSSC[C@@H](C(=O)O)NC1=O
log2 fold change (RNA-seq, refers to: Neurl3; mouse, traumatic brain injury model, frontal cortex and hippocampus; dose not given; baseline: TBI alone): -2.54
